Measured values from different studies.
Lines come from different studies, so protocols differ. ± gives the spread as reported.
Nuclear receptor subfamily 2 group C member 2 ligand-binding domain: Nuclear receptor subfamily 2 group C member 2, ligand-binding domain (Homo sapiens, UniProt P49116)

COc1cc(Nc2ncc(F)c(Nc3ccc4c(n3)NC(=O)C(C)(C)O4)n2)cc(OC)c1OC  IC50 (TH (Homo sapiens, UniProt P07101)): > 10 µM
CC[C@H](C)[C@H](NC(=O)[C@H](Cc1ccc(OP(=O)(O)O)cc1)NC(=O)[C@H](CCC(=O)O)NC(=O)[C@H](Cc1c[nH]cn1)NC(=O)CNC(=O)[C@H](CC(=O)O)NC(=O)[C@H](CO)NC(=O)[C@H](CO)NC(=O)[C@@H](NC(=O)[C@H](CO)NC(=O)[C@H](CCC(=O)O)NC(=O)c1ccc2c(c1)C(=O)OC21c2ccc(N(C)C)cc2Oc2cc(N(C)C)ccc21)C(C)C)C(=O)N[C@@H](Cc1ccc(O)cc1)C(=O)N[C@H](C(=O)N[C@@H](CC(=O)O)C(=O)N1CCC[C@H]1C(=O)N[C@@H](CCSC)C(=O)N[C@@H](CCC(N)=O)C(=O)N[C@@H](CC(=O)O)C(=O)O)C(C)C  Kd (Growth factor receptor-bound protein 10, SH2 domain (Homo sapiens, UniProt Q13322); binding): 1.84 µM
CC[C@H](C)[C@H](NC(=O)[C@H](CCC(N)=O)NC(=O)[C@@H](NC(=O)[C@@H]1CCCN1C(=O)[C@@H](NC(=O)[C@H](CO)NC(=O)[C@H](Cc1ccccc1)NC(=O)[C@@H]1CCCN1C(=O)[C@H](CCC(N)=O)NC(=O)[C@@H](N)CCSC)[C@@H](C)CC)C(C)C)C(=O)N[C@H](C(=O)N[C@@H](CC(C)C)C(=O)N[C@@H](CCC(N)=O)C(=O)NCC(=O)N[C@@H](CO)C(=O)N[C@@H](CCCNC(=N)N)C(=O)N[C@@H](CCCNC(=N)N)C(=O)N[C@@H](CCCNC(=N)N)C(=O)N[C@@H](CCC(N)=O)C(=O)NCC(=O)N[C@@H](CCCNC(=N)N)C(N)=O)[C@@H](C)O  Kd (Kcnma1 (Mus musculus, UniProt Q08460); ion current, blocker, inside-out patch clamp; Xenopus oocytes; +100 mV, together with: 10 µM cytosolic Ca2+): 0.32 µM
Nc1ncnc2c1ncn2[C@@H]1O[C@H](COP(=O)(O)OP(=O)(O)OP(=O)(O)O)[C@@H](O)[C@H]1O  Kd (matB (Rhodopseudomonas palustris, UniProt Q6ND88, C106A/K488A/Q457C/R286C); binding; MES buffer; pH 6.5): 26 ± 2 µM
CSCC[C@H](NC(=O)CNC(=O)[C@H](Cc1ccccc1)NC(=O)[C@H](CC(=O)O)NC(=O)CNC(=O)c1ccc2c(c1)C(=O)OC21c2ccc(N(C)C)cc2Oc2cc(N(C)C)ccc21)C(=O)N[C@@H](CO)C(=O)N[C@@H](CCCNC(=N)N)C(=O)N[C@@H](CC(=O)O)C(=O)N[C@H](C(=O)N[C@@H](Cc1ccc(OP(=O)(O)O)cc1)C(=O)N[C@@H](CO)C(=O)N[C@H](C(=O)N[C@@H](CC(=O)O)C(=O)N[C@@H](Cc1ccc(O)cc1)C(=O)N[C@@H](Cc1ccc(O)cc1)C(=O)N[C@@H](CCCNC(=N)N)C(=O)N[C@H](C(=O)N[C@@H](CC(=O)O)C(=O)O)C(C)C)[C@@H](C)O)C(C)C  Kd (VAV3, SH2 domain (Homo sapiens, UniProt Q9UKW4); binding): 0.894 µM
O=P1(NCCCl)OCCCN1CCCl (stereo not drawn)  Kd (Nuclear receptor subfamily 2 group C member 2 ligand-binding domain; SPR imaging): 0.00111 µM
CC(C)C[C@@H]1NC(=O)CNC(=O)[C@H](CC(C)C)NC(=O)[C@@H]2CCCN2C(=O)[C@H](CC(=O)O)NC(=O)[C@H](Cc2ccc(O)cc2)NC(=O)CNC(=O)[C@@H](Cc2ccc(O)cc2)NC(=O)CSC[C@@H](C(N)=O)NC(=O)[C@H](C)NC(=O)[C@H](Cc2ccccc2)NC(=O)[C@H](Cc2ccc(O)cc2)NC(=O)[C@H](CCCCN)NC1=O  Kd (Vacuolar protein sorting-associated protein 29 (VPS29, Homo sapiens, UniProt Q9UBQ0); ITC; 25 °C): 0.009 ± 0.002 µM
Cc1cn([C@H]2C[C@H](O)[C@@H](COP(=O)(O)OP(=O)(O)OP(=O)(O)O)O2)c(=O)[nH]c1=O  Kd (DNA polymerase I, Klenow fragment (polA, Escherichia coli, UniProt P00582, C907S/D424A/E710A/L744C); nucleotide incorporation, substrate, single-turnover rapid quench; together with: radiolabelled primer-template DNA): 110 ± 10 µM
C[C@H]1CN(c2n[nH]c3nc(N[C@H]4CC[C@H](NS(=O)(=O)CCC(F)(F)F)CC4)ncc23)CCO1  relative abundance (IRAK1 (Homo sapiens, UniProt P51617); inhibitor, Kinobeads competition profiling; 0.032 µM; baseline: vehicle): 1.03
CCC[S+]([O-])c1ccc2[nH]c(NC(=O)OC)nc2c1 (stereo not drawn)  Kd (Nuclear receptor subfamily 2 group C member 2 ligand-binding domain; SPR imaging): 0.0257 µM
Nc1nc2c(ncn2[C@@H]2O[C@H](COP(=O)(O)OP(=O)(O)OP(=O)(O)O)[C@@H](O)[C@H]2O)c(=O)[nH]1  Kd (GTP 3',8-cyclase (moaA, Staphylococcus aureus, UniProt P69848, R266K); binding, isothermal titration calorimetry; 25 °C, R266K mutant, anaerobic): 1.79 ± 0.7 µM
CSCC[C@H](NC(=O)[C@H](Cc1ccc(OP(=O)(O)O)cc1)NC(=O)CNC(=O)CNC(=O)[C@H](CC(=O)O)NC(=O)[C@H](CO)NC(=O)[C@H](CCC(=O)O)NC(=O)CNC(=O)[C@@H](NC(=O)[C@H](CC(C)C)NC(=O)[C@H](CO)NC(=O)c1ccc2c(c1)C(=O)OC21c2ccc(N(C)C)cc2Oc2cc(N(C)C)ccc21)[C@@H](C)O)C(=O)N[C@@H](CC(=O)O)C(=O)N[C@@H](CCSC)C(=O)N[C@@H](CO)C(=O)N[C@@H](CCCCN)C(=O)N[C@@H](CC(=O)O)C(=O)N[C@@H](CCC(=O)O)C(=O)N[C@@H](CC(=O)O)C(=O)O  Kd (Ras and Rab interactor 1, SH2 domain (RIN1, Homo sapiens, UniProt Q13671); binding): 0.724 µM
CC[C@H](C)[C@H](NC(=O)[C@H](C)N)C(=O)N[C@@H](CO)C(=O)N[C@@H](CO)C(=O)N[C@@H](CO)C(=O)N[C@@H](CO)C(=O)N[C@@H](CS)C(=O)N[C@@H](CCC(=O)O)C(=O)N[C@@H](CC(C)C)C(=O)N1CCC[C@H]1C(=O)N[C@@H](CC(C)C)C(=O)N[C@H](C(=O)N[C@@H](C)C(=O)N[C@H](C(=O)N[C@@H](CCCCN)C(=O)N[C@@H](CCCCN)C(=O)N[C@@H](CCCCN)C(=O)N[C@@H](CCCCNC(=O)CCCCCNC(=S)Nc1ccc2c(c1)C(=O)OC21c2ccc(O)cc2Oc2cc(O)ccc21)C(N)=O)C(C)C)C(C)C  Kd (E3 ubiquitin-protein ligase XIAP, BIR1 domain (XIAP, Homo sapiens, UniProt P98170); fluorescence polarization; 30 min, pH 7.5, together with: 20 nM FITC-labeled peptide): no binding
Cc1sc2c(c1C)C(c1ccc(Cl)cc1)=N[C@@H](CC(=O)O)c1nnc(C)n1-2  Kd (elongin C (Spodoptera frugiperda, UniProt A0A2H1WSX9+A0A9R0EEM2); ternary complex formation, degrader, AlphaLISA): > 0.5 µM
CC(=O)N[C@H](C(=O)N[C@@H](CC(N)=O)C(=O)N[C@@H](CCCCN)C(=O)N[C@@H](C)C(=O)N[C@@H](CC(C)C)C(=O)N1CCC[C@H]1C(=O)N[C@@H](C)C(=O)N[C@@H](CC(C)C)C(=O)N1CCC[C@H]1C(=O)N[C@H](C(=O)N[C@@H](C)C(N)=O)C(C)C)C(C)C  Kd (High osmolarity signaling protein SHO1, SH3 domain (SHO1, Saccharomyces cerevisiae, UniProt P40073); binding, isothermal titration calorimetry; 50 mM sodium phosphate, 100 mM NaCl; pH 7.0, 25 °C): 15.7 ± 0.8 µM
Nc1ccn([C@H]2C[C@H](O)[C@@H](COP(=O)(O)OP(=O)(O)OP(=O)(O)O)O2)c(=O)n1  Kd (DNA polymerase I, Klenow fragment (polA, Escherichia coli, UniProt P00582, C907S/D424A/L744C); substrate, single-turnover chemical quench; together with: dNTP): 6.6 µM
CC[C@H](C)[C@H](NC(=O)CNC(=O)[C@H](CC(=O)O)NC(=O)[C@H](Cc1ccc(OP(=O)(O)O)cc1)NC(=O)[C@@H]1CCCN1C(=O)[C@H](CCCCN)NC(=O)[C@H](CO)NC(=O)CNC(=O)[C@H](Cc1ccccc1)NC(=O)[C@@H](NC(=O)[C@H](CCSC)NC(=O)[C@H](CC(C)C)NC(=O)[C@H](CCC(=O)O)NC(=O)c1ccc2c(c1)C(=O)OC21c2ccc(N(C)C)cc2Oc2cc(N(C)C)ccc21)[C@@H](C)O)C(=O)N1CCC[C@H]1C(=O)N[C@@H](C)C(=O)N[C@@H](CO)C(=O)N[C@@H](CCC(=O)O)C(=O)N[C@@H](CC(=O)O)C(=O)O  Kd (SH2 domain-containing adapter protein B, SH2 domain (SHB, Homo sapiens, UniProt Q15464); binding): 1.06 µM
CC1=NN(c2cccc(Cl)c2)C(=O)/C1=C\c1cn(-c2nc(N3CCOCC3)nc(N3CCOCC3)n2)c2ccccc12  Kd (PTGS2 (Homo sapiens, UniProt P35354); binding, UV-vis spectroscopy, Benesi-Hildebrand; pH 7.4; higher = stronger binding): 5.21 µM
C=C(C)[C@@H]1CC[C@]2(C(=O)NCCCCCCCC(=O)N(CCCC3(C)N=N3)CC(=O)O)CC[C@]3(C)C(CCC4[C@@]5(C)CC[C@H](O)C(C)(C)C5CC[C@]43C)C12 (stereo partly drawn)  Kd (Envelope glycoprotein gp160, HR2 peptide (Human immunodeficiency virus type 1 group M subtype B, UniProt P03377); binding): 9.6 µM
CC(C)C[C@H](NC(=O)[C@@H](NC(=O)[C@H](CO)NC(=O)[C@H](CO)NC(=O)[C@@H](NC(=O)[C@H](CC(=O)O)NC(=O)[C@H](CC(C)C)NC(=O)[C@@H]1CCCN1C(=O)[C@H](CO)NC(=O)c1ccc2c(c1)C(=O)OC21c2ccc(N(C)C)cc2Oc2cc(N(C)C)ccc21)[C@@H](C)O)C(C)C)C(=O)N[C@@H](Cc1ccc(OP(=O)(O)O)cc1)C(=O)N[C@H](C(=O)N[C@@H](C)C(=O)N[C@H](C(=O)N[C@@H](CCC(N)=O)C(=O)N1CCC[C@H]1C(=O)N[C@@H](CC(N)=O)C(=O)N[C@@H](CCC(=O)O)C(=O)N[C@@H](CC(=O)O)C(=O)O)C(C)C)[C@@H](C)O  Kd (Growth factor receptor-bound protein 7, SH2 domain (GRB7, Homo sapiens, UniProt Q14451); binding): 0.579 µM
C[N+](C)(C)[C@@H](Cc1c[nH]c(=S)[nH]1)C(=O)[O-]  Kd (Ergothioneine transport permease/ergothioneine binding protein EgtU, substrate-binding domain (egtU, Helicobacter pylori, UniProt B5Z7I3); binding, isothermal titration calorimetry; substrate-binding domain): 2.02 µM

For quick reference, copied from above:
Cc1cn([C@H]2C[C@H](O)[C@@H](COP(=O)(O)OP(=O)(O)OP(=O)(O)O)O2)c(=O)[nH]c1=O  Kd (DNA polymerase I, Klenow fragment (polA, Escherichia coli, UniProt P00582, C907S/D424A/E710A/L744C); nucleotide incorporation, substrate, single-turnover rapid quench; together with: radiolabelled primer-template DNA): 110 ± 10 µM
CC[C@H](C)[C@H](NC(=O)[C@H](Cc1ccc(OP(=O)(O)O)cc1)NC(=O)[C@H](CCC(=O)O)NC(=O)[C@H](Cc1c[nH]cn1)NC(=O)CNC(=O)[C@H](CC(=O)O)NC(=O)[C@H](CO)NC(=O)[C@H](CO)NC(=O)[C@@H](NC(=O)[C@H](CO)NC(=O)[C@H](CCC(=O)O)NC(=O)c1ccc2c(c1)C(=O)OC21c2ccc(N(C)C)cc2Oc2cc(N(C)C)ccc21)C(C)C)C(=O)N[C@@H](Cc1ccc(O)cc1)C(=O)N[C@H](C(=O)N[C@@H](CC(=O)O)C(=O)N1CCC[C@H]1C(=O)N[C@@H](CCSC)C(=O)N[C@@H](CCC(N)=O)C(=O)N[C@@H](CC(=O)O)C(=O)O)C(C)C  Kd (Growth factor receptor-bound protein 10, SH2 domain (Homo sapiens, UniProt Q13322); binding): 1.84 µM
